Results pooled from the literature.
Every numbered part comes from another study and shows a few of its results, in no order.

Series 1 — technique: universal PBM; molecule type: double-stranded DNA, one strand shown; medium: in vitro; tested at: 600 nM; reading: higher = stronger binding; endpoint: E-score
Target: Sal-like protein 4, full length isoform A (SALL4, Homo sapiens, UniProt Q9UJQ4, residues 1-1053)
UniProt Q9UJQ4, sequence (whole entry, looked up): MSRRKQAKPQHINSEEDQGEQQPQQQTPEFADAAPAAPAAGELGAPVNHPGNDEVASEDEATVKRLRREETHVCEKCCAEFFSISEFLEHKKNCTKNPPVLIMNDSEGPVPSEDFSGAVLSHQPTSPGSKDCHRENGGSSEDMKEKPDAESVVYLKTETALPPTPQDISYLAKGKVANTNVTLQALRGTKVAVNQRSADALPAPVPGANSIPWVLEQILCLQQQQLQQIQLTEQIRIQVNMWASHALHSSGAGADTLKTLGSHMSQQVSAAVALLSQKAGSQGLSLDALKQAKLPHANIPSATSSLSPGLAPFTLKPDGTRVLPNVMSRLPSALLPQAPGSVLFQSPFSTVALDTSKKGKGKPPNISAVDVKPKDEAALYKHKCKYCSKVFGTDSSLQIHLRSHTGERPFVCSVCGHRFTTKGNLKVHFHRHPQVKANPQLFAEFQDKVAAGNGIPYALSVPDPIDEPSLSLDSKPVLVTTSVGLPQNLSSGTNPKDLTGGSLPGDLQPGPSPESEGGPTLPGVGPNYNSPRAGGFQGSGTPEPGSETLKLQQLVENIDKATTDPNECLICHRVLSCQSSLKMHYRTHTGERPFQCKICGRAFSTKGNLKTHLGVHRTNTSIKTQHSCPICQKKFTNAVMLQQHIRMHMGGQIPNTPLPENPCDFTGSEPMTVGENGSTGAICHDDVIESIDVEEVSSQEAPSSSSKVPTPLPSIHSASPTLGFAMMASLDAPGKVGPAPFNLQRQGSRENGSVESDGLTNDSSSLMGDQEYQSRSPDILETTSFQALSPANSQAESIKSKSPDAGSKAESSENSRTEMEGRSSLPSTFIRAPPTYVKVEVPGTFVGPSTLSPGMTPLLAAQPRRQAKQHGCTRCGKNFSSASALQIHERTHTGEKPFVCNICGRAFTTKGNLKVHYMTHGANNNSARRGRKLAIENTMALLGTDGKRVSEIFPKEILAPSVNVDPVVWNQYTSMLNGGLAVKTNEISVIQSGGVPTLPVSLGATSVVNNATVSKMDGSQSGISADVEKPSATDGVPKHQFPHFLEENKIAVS
Setting: 8-mer, flanks averaged, mean of replicates
GGCTACCA: -0.0982
TCGGTCCA: -0.207
CAGATCGC: -0.188
ACGCTTCC: -0.156
CTCATTTC: 0.148
CCTGTAAA: 0.107
GCCTACCC: -0.31
CAAGTTAC: 0.0566
ACGATGGC: -0.0345
AGTACCGC: -0.0621
GGATGAGA: -0.0394
CGAGGCAG: -0.203
CCCAGTGC: -0.294
AAGTCAGT: 0.117
AAAGGACC: -0.225
ATCGAAGA: 0.247
GCAAGTAA: 0.0939
TGACGACA: -0.038
CAGCCTAA: -0.0847
CATCTAAG: -0.102
AGCCTTAA: 0.00455

Series 2 — technique: RNA Bind-n-Seq; molecule type: RNA; medium: in vitro; tested at: 365 nM; reference: no-protein control; reading: higher = stronger binding; endpoint: RBNS enrichment (R)
Target: RNA binding protein fox-1 homolog 2, RRM domain, GST-SBP tag (RBFOX2, Homo sapiens, UniProt O43251-10, residues 100-194)
Setting: natural RNA segment, single round, ends assumed
All sequences stand within: GGGAGUUCUACAGUCCGACGAUC … UGGAAUUCUCGGGUGCCAA
Residues (chain): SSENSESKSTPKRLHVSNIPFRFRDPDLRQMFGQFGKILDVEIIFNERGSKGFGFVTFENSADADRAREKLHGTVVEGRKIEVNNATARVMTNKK
GUUGGGGGGCAGUUGGUUUGGUCUUCCUUCUAGGAGUAUGAGGGCAGCCUGUCUAGUUUGUAGAUCCCCUUGGUUGCUGGAUAAAGGAUGAUAAUAAAGUGUCUUUCUCU: 0.641
UAUAAAUCCAUGAAGCUGCUUGUCUCAUAAAGUAGAACUGAUACAAAUUUUGGUUGGAUAUAUAGAGAAUUUUAUAAAUGUAUUGCCUUAGAAUUUCUGGGUGGAGACCC: 0.716
UACACUGUUCAUUUUUAAAAUUCCUUCACACUGUAAUUUAAUGUGUUUUAUAUUCUUUUGUAGUAAAACAACAUAACUCAGAUUUCUACAGGAGACAGUGGUUUUAUUCG: 0.419
CUCUUGCUCUCCAAUGGGGAGACCAUGUUUCCUAGAGUGUGAGCUGCCCCUCACCCCCUGAAAAGCUGACUCACUGUGAGUGACCUUGGGCAAGUCCCCAAACCUCCUUG: 0.237
CAACCCUUUUUCAGUAACUUAUGUUCACCAGUCUGUGCUUUUCUUCUCCCAGAAGGCUUUUCUUAGUGGUUGUAAAUGCAAGAAUCCUGAGCCCUGUGUUGCAAAGGUGG: 0.529
GGGCUCUGAGCUGCACUGGCCCCGGUGCUGGCAUCUGGUGGAGCGGACCCACUCCCCUCACAUUCCACAGGCCCAUGGACUCACUUUUGUAACAAACUCCUACCAACACU: 0.413
GCCAUGUGGAGAACAAUGGUAUUAAUCCAUACUGGGGGGAGACUUUCUAUUUCCGGCUCCAGGUACCUGAACUUGCUAUGUUGCGUUUUGUGGUAAAGGAUUAUAGCAGG: 2.19
UUGCUACAUAUUAGAAUCAUCUGGGAGGUUUUAAACAAAUUCUGAUGCCCAGGUUGCACCCCAUGCCAAUGAAAUCAUUUCUGGGCGUCAGCGCCAGGCAGUUGUAUUUU: 0.587
UCUUUUCGUGUUCUCAGUGUAUUAUGUACGUGUGUGCUGUUGCCGCUAUGAGGGCUCGGGGCUUGCAGGCUCUGAGGGCAUGUCGCAGGCGAGCUGGAAGGAAGCGCUCU: 2.42
AUUUCAGCCUCGUGGCUUCUCUUAUUCAGGUCCAAGGCCCCUUAAAAACAAAACAUAUUAUCGCAAGGGCUUUCAUUUCAGUAUUGGCUGUGUCACUGGCAGGAUGCAUC: 0.894
UAUGUAACAAUCAUGAAUAUUAGAUUUUUUAAAUUGUAGAAUAUCCUAAUAUUUAUAGCCAGCAGCUGUUACUUUGUUUGUAAAAUUUGCAAAAAAACAAAACCUGAAGU: 1.82
ACAGUUACAACCCACUGGGGCUGGUGGGAGAUGCGUUGUAUGGGACUGGAAGCAAGAGGUUCAUUCAAAGAGAAACUCAUGGGAUUUGUAACCAGAUGAAUCAUGAUUUC: 1

Series 3 — technique: protein binding microarray; molecule type: double-stranded DNA, one strand shown; medium: in vitro; tested at: not given; reference: not given; reading: higher = stronger binding; endpoint: E-score
Target: Histone acetyltransferase KAT6A, both winged helices, GST fusion (KAT6A, Homo sapiens, UniProt Q92794, residues 1-181)
Setting: 8-mer, flanks averaged, mean of 2 arrays, mostly near background
Construct (chain): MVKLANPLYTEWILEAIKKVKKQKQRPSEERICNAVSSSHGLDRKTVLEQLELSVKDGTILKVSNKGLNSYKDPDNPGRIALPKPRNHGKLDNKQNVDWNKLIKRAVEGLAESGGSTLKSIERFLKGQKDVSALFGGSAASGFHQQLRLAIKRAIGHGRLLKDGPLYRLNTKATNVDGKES
AGGCGAAA: -0.115
CGCGAAGA: 0.146
ACCTTGAG: -0.0584
CAGTATAC: -0.066
GGCAGGAC: -0.00651
CAAATAAG: -0.0577
CGAGCAGC: 0.0377
GGGCATCA: -0.102
ATATTGAT: -0.117
CTAGGCAC: -0.153
GCGATCCA: -0.0334
CGTCCAAC: 0.00504
AACACTAC: -0.0244
GCTCTCAA: -0.0343
ATGCTTAA: -0.00291
CCACAGTC: -0.221
AATCGTAA: -0.00575
GGGCAGTA: -0.0603
ATGACCTG: -0.149
ACCGTCGG: 0.36
AAGATTGA: -0.147
AGCTGCCG: 0.13
CTGGGGAA: -0.185
CCAATTCA: -0.152
GCAAACTA: -0.139

Series 4 — technique: protein-binding microarray; molecule type: double-stranded DNA, one strand shown; medium: in vitro; tested at: 0.8 µM; setting: whole 60-bp probe, no competitor; reading: higher = stronger binding; endpoint: fluorescence intensity; all sequences stand within: … GTCTTGATTCGCTTGACGCTGCTG
Target: Centromere-binding protein 1, full length, N-terminal tag (CBF1, Saccharomyces cerevisiae, UniProt P17106, residues 1-351)
UniProt P17106, sequence (whole entry, looked up): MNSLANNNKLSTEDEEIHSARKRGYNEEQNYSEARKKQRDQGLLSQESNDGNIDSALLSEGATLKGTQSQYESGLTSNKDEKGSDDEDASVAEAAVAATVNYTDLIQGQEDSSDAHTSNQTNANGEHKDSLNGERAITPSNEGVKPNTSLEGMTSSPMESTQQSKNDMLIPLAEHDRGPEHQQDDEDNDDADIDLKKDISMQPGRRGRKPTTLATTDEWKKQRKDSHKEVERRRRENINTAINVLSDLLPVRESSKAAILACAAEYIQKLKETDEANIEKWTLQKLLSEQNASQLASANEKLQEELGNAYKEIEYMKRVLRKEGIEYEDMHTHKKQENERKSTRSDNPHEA
GAATAAGAAAAACATCTGATGTTGACTTAAATATAG: 509 a.u.
GAATCTATTGGTTGGCTGATGTTAGTAATTACTTAG: 537 a.u.
TGTACGAAGCTATATCAGGGCCATATAGTAGTTAGG: 510 a.u.
GAAAGAAACATCCATGTGATAAAACTCCGCACGTAG: 1120 a.u.
GAAGTTCAACCCGGACACGTTGTTATTAGCTGGTAG: 604 a.u.
GAAATGAACGCTACTGATGATGCAAATGAAGCTTAG: 555 a.u.
CTATGCTCGAGAAAGCATCACGTTTTCACACATTTC: 1970 a.u.
CTATACAGAGCAAGGAACGTGATGTAATGCATTTTC: 989 a.u.
GAAACAATTCCCTCCCACGTATAAACACATACATAG: 543 a.u.
GAAGCTAGAAGCCATCACGAATATTTTTGTAAATAG: 516 a.u.
GAACTTCCGCTAACGCTGATGGAGTATTTTTTTTAG: 500 a.u.
GAATGTGGGAAAAATCACGTGCGAGAAAGTAAGTAG: 9110 a.u.
GAACGGTAACCAATTCACGTTGCCGATCGAGGTTAG: 588 a.u.
CTAAAACGTGGGCATGACGTGGAAGCGATGATCTTC: 770 a.u.
GAAGCACGTGATATACACCTGACCTATAATATTTAG: 18600 a.u.
GAACTTTTTAATATCCTCGTGCTGCTCAAGGTATAG: 730 a.u.
CTAGCAAGGATTGATAACGTGATAGGGTAATGATTC: 2080 a.u.
CTAATATGATTAAGTCACGATAATATCTGCACTTTC: 594 a.u.
CTACACATTAAATATATCGTGACTACCCAATCTTTC: 1320 a.u.
GAAGCACACAGAGGTTATGTGACCATGGTAACCTAG: 534 a.u.
GAACTGCCTGCCTATCTGATGCTTTGCCACCACTAG: 499 a.u.
CCTAACTACTATAATCACGTGCGATAGCTTCGTACA: 9710 a.u.
CTAACGTTTTAACAGCTGATAACCGCCATTTTTTTC: 556 a.u.
GAATTTCATATATTTAATGTGACGACTCATATTTAG: 532 a.u.
CTATAAAAAGAAAAACACGAGGGGACCAGGTTGTTC: 617 a.u.

Series 5 — technique: RNA Bind-n-Seq; molecule type: RNA; medium: in vitro; tested at: not given; reference: input RNA pool; reading: higher = stronger binding; endpoint: bound/input enrichment
Target: RING finger protein unkempt homolog, zinc fingers 1-6, GST-SBP tag (UNK, Homo sapiens, UniProt Q9C0B0, residues 30-357)
Setting: RNA with constant flanks, human and mouse sites, ends assumed
All sequences stand within: GGGAGUUCUACAGUCCGACGAUC … CAACAGAGGAUUGAGCAUCA
Residues (chain): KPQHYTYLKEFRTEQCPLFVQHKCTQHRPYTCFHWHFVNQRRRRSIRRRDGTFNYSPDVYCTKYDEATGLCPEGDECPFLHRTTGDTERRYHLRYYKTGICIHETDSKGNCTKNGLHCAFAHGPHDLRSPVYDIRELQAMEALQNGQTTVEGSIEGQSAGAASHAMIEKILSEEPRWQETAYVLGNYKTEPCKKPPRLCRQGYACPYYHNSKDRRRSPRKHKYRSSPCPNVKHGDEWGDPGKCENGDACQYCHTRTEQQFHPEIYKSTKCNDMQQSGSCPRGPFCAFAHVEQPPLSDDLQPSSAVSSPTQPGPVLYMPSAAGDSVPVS
GUGAUUAUUGAAGAGUCUCAGCCACAAAAAAUAAAGAUGCUGUUAGAGAAAUUUGUUGAAGAAUGCAAGUUCCCUCCAGUGCCAGAUGCCAUUUGUUGCUAUCAGAAGUGCCAUGGAUAU: 0.295 ratio
CCAUCAGGACACAGGCUCCGGGACGUCGAGCAUCAUCCUCUCCUGGCUGAAAAUGACAACUAUGACUCUUCAUCGUCCUCCUCCUCCGAGGCUGACGUGGCUGACCGGGUCUGGUUCAUC: 0.0489 ratio
AUUUGUUUUGUGAAUGACCCACGGCCCCAGCACAAGUACAAUAAAUUGUACACAGUAGACUACUUGAGCAAUAUGGUUGGAGGGAGAAAAACGCUGUAUAACAACCAGCCCAUUGACUUC: 0.125 ratio
GCUAGGAUUUAAAAAUAAAAAUCAGAGGCCUAUCUCCACUUUAAAUCUGUCCUGUAAAAGUUUUAUAAAUCAAAUGAAAGGUGACAUUGCCAGAAACUUACCAUUAACUUGCACUACUAG: 1.5 ratio
UGUUCCAACGCUGCCUUUGCUUUAAAACAGUAUUACUUGCGUUAUCUAGAAAAGUACGAGAAAGUUCAUCAUUUUGGGGAAGAUGAUGAUGAGGUACCACCAGGCAAUCCAAAGCCACAG: 0.609 ratio
CAGCAGUCAUCUCUCAGUAGGGACUCACAGGGUCAUGGGCGUGACCUGUCUGCGGCAGGAAUAGGCCUUCUUGCUGCUGCUACCCAGUCUUUAAGUAUGCCAGCAUCUCUUGGAAGGAUG: 0.0646 ratio
UGGAAGUACAUCUUGUGGGAGGCUUCAGUGAUGACAGGCAGCUGUCACAGAAACUUACUCAUCAGCUUCUCAGUGAAUUUGACAAACAGGAUGAUGACAUUCACUUAGUGACAUUAUGUG: 0.232 ratio
GUUAAGAGAAGACUAUGGAGCUGUACGAGUCAACGUAUUUUGUUGUCCUCAUCCCUUCAGUAGUUAUUACCGUCAUUUUCCUUUUCUUCUGGCUUUUCAUGAAAGAAACAUUAUAUGAUG: 4.73 ratio
UGGAAAGAUGAAUUCAAGGCACACUCAAGGGUGAAGUGUCCAAACUCAGGGUGCUGGCUAGAGUUCCCCAGCAUCUAUGGGCUCAAGUACCACUAUCAGCGGUGCCAAGGGGUAAGGGGC: 0.296 ratio
ACAAAGCAGCUGACAGAAAUGCUACCCAGCAUCUUAAACCAGCUUGGUGCGGAUAGUCUGACUAGUUUAAGGAGACUGGCCGAAGCUCUGCCCAAACAAUCUGUGGAUGGAAAAGCACCA: 0.0621 ratio
ACUGGAAAGACUCUGGUUGCCAGAGCACUUGCCAAUGAGUGCAGUCAAGGGGAUAAAAGAGUAGCAUUUUUCAUGAGGAAAGGUGCUGAUUGUCUAAGUAAAUGGGUAGGAGAAUCUGAA: 0.318 ratio

Excerpt of the above (series 3):
CTAGGCAC: -0.153
GCGATCCA: -0.0334
CGTCCAAC: 0.00504
AACACTAC: -0.0244
GCTCTCAA: -0.0343
ATGCTTAA: -0.00291
CCACAGTC: -0.221
AATCGTAA: -0.00575
GGGCAGTA: -0.0603
ATGACCTG: -0.149
ACCGTCGG: 0.36
